Published values collected from several papers.
Protocols differ between the studies behind these lines. “And” joins repeats or separate records; there may be more than shown. ± gives the spread as reported.
Abhd6: Monoacylglycerol lipase ABHD6 (Abhd6, Rattus norvegicus, UniProt Q5XI64)
Chain of UniProt Q5XI64 (whole entry, looked up): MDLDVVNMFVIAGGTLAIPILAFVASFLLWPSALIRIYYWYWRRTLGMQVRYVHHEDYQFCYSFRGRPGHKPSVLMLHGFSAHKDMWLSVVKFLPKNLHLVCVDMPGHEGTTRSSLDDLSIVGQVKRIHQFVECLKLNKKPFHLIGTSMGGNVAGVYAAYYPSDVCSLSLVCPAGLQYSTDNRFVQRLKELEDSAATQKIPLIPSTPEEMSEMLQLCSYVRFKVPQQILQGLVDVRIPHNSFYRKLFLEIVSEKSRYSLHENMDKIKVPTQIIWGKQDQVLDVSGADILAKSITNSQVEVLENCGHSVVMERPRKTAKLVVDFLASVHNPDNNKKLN
Chain of UniProt Q62351 (whole entry, looked up): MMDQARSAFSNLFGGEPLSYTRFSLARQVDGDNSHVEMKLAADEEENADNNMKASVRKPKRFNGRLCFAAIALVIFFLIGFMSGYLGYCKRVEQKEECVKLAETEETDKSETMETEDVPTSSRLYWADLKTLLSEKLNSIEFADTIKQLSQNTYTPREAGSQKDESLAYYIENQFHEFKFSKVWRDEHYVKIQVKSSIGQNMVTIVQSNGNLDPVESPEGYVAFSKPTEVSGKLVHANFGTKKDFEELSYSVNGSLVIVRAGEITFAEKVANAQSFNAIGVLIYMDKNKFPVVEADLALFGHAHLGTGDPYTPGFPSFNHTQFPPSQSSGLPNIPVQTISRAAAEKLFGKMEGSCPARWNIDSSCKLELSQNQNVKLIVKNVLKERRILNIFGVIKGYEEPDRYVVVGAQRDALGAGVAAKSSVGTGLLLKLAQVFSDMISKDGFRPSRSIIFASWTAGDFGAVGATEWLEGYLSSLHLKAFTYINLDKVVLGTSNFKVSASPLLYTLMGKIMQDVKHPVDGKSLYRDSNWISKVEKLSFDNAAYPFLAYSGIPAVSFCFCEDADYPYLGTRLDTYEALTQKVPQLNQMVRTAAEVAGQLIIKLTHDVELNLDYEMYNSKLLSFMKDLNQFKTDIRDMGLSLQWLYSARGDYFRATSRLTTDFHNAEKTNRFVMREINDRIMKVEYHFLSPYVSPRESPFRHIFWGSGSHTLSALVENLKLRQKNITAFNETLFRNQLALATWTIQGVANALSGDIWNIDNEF
Chain of UniProt Q9UMR5 (whole entry, looked up): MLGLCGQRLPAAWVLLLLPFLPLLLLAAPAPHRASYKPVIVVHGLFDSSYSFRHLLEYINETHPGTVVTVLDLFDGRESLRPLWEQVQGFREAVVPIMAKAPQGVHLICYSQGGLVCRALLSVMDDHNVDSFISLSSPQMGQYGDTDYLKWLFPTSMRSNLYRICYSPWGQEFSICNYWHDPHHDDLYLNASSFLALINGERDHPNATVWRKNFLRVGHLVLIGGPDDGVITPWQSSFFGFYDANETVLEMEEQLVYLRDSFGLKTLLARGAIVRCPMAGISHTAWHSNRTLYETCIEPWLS
Chain of UniProt P00942 (whole entry, unmodified, looked up): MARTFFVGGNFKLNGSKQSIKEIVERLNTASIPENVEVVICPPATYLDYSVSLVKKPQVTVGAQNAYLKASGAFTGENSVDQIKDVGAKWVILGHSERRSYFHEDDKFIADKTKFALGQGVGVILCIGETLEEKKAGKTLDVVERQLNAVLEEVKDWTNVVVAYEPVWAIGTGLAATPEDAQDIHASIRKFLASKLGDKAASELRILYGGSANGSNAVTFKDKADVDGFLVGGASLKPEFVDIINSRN
Chain of UniProt Q9Y6W6 (whole entry, looked up): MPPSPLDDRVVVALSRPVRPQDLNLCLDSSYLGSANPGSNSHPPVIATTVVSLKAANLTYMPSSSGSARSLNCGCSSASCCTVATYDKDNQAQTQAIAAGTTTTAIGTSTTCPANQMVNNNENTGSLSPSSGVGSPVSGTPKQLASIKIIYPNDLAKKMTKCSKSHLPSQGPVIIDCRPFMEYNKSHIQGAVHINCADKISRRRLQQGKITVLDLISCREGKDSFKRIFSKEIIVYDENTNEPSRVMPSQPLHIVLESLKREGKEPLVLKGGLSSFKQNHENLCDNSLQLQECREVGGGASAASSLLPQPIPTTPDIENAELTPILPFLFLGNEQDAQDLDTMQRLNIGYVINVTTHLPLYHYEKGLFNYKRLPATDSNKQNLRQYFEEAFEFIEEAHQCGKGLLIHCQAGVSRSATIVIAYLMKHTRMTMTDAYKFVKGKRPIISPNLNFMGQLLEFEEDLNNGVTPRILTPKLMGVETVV
Chain of UniProt P04629 (whole entry, looked up): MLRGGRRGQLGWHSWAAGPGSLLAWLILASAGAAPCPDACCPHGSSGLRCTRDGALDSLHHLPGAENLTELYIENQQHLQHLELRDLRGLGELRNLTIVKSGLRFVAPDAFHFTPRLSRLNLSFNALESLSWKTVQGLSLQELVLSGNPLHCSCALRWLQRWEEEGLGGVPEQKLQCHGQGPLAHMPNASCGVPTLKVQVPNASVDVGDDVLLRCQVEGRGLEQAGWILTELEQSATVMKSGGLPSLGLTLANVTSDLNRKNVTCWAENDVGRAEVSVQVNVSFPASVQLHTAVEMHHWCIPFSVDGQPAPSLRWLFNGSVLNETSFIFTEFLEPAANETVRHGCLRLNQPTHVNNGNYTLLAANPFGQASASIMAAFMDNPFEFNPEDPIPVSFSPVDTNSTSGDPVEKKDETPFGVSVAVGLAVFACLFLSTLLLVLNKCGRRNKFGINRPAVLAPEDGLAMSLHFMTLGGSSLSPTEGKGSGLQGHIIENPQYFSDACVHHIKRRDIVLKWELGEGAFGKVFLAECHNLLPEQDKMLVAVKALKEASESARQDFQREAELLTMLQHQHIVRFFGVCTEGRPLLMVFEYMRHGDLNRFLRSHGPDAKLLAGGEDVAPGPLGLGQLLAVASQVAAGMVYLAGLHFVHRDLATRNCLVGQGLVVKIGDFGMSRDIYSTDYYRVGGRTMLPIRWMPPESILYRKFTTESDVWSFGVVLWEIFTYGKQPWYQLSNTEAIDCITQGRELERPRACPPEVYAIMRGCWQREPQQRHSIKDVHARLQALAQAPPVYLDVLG
Chain of UniProt O42275 (whole entry, looked up): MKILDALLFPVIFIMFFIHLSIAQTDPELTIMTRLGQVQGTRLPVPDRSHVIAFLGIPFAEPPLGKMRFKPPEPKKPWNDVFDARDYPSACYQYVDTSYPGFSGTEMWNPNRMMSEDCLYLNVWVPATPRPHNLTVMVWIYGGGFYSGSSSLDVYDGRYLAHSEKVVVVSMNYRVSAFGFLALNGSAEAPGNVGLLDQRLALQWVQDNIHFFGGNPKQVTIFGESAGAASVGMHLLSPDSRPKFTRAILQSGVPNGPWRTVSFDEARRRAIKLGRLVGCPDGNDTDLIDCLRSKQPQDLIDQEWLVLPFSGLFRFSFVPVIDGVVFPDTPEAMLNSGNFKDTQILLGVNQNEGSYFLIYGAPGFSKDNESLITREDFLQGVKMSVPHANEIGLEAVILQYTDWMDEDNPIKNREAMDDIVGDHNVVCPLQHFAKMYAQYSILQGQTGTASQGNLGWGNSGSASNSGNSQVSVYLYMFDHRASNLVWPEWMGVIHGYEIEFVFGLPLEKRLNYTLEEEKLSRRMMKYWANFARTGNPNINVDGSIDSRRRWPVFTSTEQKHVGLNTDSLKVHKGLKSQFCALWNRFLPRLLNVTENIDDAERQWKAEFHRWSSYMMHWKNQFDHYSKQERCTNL
Chain of UniProt P28072 (whole entry, looked up): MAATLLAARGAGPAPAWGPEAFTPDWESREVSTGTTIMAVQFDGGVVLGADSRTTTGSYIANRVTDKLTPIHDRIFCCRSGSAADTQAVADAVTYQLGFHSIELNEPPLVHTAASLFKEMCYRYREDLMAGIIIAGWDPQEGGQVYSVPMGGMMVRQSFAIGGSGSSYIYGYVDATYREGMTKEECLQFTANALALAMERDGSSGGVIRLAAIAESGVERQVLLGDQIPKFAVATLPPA
Chain of UniProt Q9UDY8 (whole entry, looked up): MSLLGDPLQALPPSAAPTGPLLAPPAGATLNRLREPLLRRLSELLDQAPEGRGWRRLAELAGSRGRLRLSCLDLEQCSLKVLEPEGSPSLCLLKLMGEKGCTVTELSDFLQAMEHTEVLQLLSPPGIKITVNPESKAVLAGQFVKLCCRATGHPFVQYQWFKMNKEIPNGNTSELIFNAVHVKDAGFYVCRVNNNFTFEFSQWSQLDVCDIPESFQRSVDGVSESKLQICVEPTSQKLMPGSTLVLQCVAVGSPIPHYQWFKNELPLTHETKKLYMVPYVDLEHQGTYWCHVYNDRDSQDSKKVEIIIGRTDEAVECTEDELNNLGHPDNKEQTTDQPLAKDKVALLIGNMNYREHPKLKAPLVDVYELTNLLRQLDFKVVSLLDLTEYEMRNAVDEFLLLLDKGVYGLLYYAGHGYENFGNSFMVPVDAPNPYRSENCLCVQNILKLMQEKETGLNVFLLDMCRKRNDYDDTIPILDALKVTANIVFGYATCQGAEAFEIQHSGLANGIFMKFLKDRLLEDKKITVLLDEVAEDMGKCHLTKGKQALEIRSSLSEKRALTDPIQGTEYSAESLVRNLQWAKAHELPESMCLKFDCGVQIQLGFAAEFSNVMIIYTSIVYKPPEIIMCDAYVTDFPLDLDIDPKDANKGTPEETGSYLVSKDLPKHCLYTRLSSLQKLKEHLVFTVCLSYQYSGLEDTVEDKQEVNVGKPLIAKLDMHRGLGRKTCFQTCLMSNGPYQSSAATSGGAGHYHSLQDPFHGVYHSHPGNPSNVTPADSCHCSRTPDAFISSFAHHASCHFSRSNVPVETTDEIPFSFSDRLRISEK
Chain of UniProt P16152 (whole entry, looked up): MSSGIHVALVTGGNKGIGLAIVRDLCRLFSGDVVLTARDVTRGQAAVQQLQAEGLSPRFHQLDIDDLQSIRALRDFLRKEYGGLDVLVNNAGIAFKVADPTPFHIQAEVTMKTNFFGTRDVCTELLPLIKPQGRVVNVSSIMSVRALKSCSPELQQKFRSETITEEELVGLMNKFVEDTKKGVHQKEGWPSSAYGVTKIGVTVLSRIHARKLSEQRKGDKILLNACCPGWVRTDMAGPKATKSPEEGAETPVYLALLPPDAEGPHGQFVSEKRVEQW

For `CC1(C)S[C@@H]2[C@H](/N=C/N3CCCCCC3)C(=O)N2[C@H]1C(=O)O`, the kinact/KI was 410 ± 58 M⁻¹ s⁻¹ (Penicillin-binding protein 2X (Streptococcus pneumoniae R6, UniProt P59676); inhibitor; Streptococcus pneumoniae).
The IC50 of `C[C@H]1COCCN1c1nc(NCc2cccnc2C(F)(F)F)c2cccnc2n1` is reported as 37.8 µM (CHRM2 (Homo sapiens, UniProt P08172); binding; CEREP panel).
With `Cn1nccc1[C@]1(CNC(=O)c2ccc(F)c(F)c2-c2ccc(C(F)(F)F)cc2)NC(=O)NC1=O` the selectivity ratio was greater than 16700 (MALT1 (Homo sapiens, UniProt Q9UDY8); inhibitor; reference: MALT1 over target).
`O=C(O)CCC(=O)C(=O)O` has a Km of 9 ± 2 µM (HIF1AN (Homo sapiens, UniProt Q9NWT6); substrate; pH 7.00, 37.0 °C, together with: CTAD 100 µM).
`O=C(O)CCCCN(CCc1cc(F)ccc1OCc1ccc(-c2ccc(C(F)(F)F)cc2)cc1)Cc1ccc(C(=O)O)cc1`: cGMP level “increased” (GUCY1B1, with alpha-1 subunit (Homo sapiens, UniProt Q02153); sGC activation, activator; human cells; concentration not given).
For `O=C(c1ccc(Cl)cc1)N1CCN2C(=O)N(OC(=O)N3CCOc4ccccc43)C(=O)C2C1` (centres unmarked), the peptide ratio was 0.41 and 0.38 (PPT2 (Homo sapiens, UniProt Q9UMR5); MS-based ABPP; SW-620 conditioned medium; 10 µM, 1 h, 37 °C; reference: compound over DMSO, lower = more inhibition).
With `C[C@H]1CN(c2n[nH]c3nc(N[C@H]4CC[C@H](NS(=O)(=O)CCC(F)(F)F)CC4)ncc23)CCO1` the relative abundance was 1.03 (CBR1 (Homo sapiens, UniProt P16152); inhibitor, Kinobeads competition profiling; 0.16 µM; reference: vehicle).
For `CCc1cc(O)cc2c(/C=N/NC(=N)NCCc3ccc(Cl)cc3)c[nH]c12`, the Emax was 104 ± 13% (RXFP3 (Homo sapiens, UniProt Q9NSD7)).
With `O=C(O)COP(=O)(O)O` the Ki ratio was 50 (TPI1 (Saccharomyces cerevisiae, UniProt P00942, S211A); enzyme activity, competitive inhibitor, GPDH/NADH-coupled; pH 8.3, 25 °C, ionic strength 0.1 NaCl, together with: glyceraldehyde 3-phosphate substrate; reference: mutant over wild type).
Under “active site volume”, `CCCc1scc2c1-c1nc(SCC(=O)C(C)(C)C)ncc1CC2` is recorded as 51.8 ± 1 Å³ (Dual specificity protein phosphatase 10, catalytic domain (Homo sapiens, UniProt Q9Y6W6); X-ray co-crystal structure; concentration not given).
`CNC(C)Cc1ccc2nsnc2c1` (centres unmarked) gave an Emax of 84.3 ± 7.2% (HTR2C (Homo sapiens, UniProt P28335); agonist; reference: 5-HT).
`CO[C@H]1C[C@H](O[C@H]2[C@H](C)O[C@@H](O[C@@H]3/C(C)=C/C[C@@H]4C[C@@H](C[C@]5(C=C[C@H](C)[C@@H](C6CCCCC6)O5)O4)OC(=O)[C@@H]4C=C(C)[C@@H](O)[C@H]5OC/C(=C\C=C\[C@@H]3C)[C@]54O)C[C@@H]2OC)O[C@@H](C)[C@@H]1O` has an efficacy of 2.47 ± 2.13% (NR1H3 (Homo sapiens, UniProt Q13133); coactivator recruitment; 0.4 µM).
For `Cc1onc(-c2c(Cl)cccc2Cl)c1C(=O)N[C@@H]1C(=O)N2[C@@H]1SC(C)(C)[C@@H]2C(=O)O`, the kinact/KI was 2000 ± 100 M⁻¹ s⁻¹ (Penicillin-binding protein 2a (pbp2a, Streptococcus pneumoniae, UniProt Q8DNB6); inhibitor).
With `CN(C(=O)n1cnc(-c2ccc[n+]([O-])c2)c1)C1CCCCC1` the inhibition was 96.4% (Abhd6; FP probe labelling, competitive ABPP; rat brain soluble fraction; 100 µM).
`CCN(CC)CCCC[C@H](NC(=O)[C@H](CC(C)C)NC(=O)[C@H](C)NC(=O)[C@H](Cc1ccccc1)NC(=O)c1ccc(C(C)(C)C)cc1)C(=O)N[C@@H](CO)C(=O)OC` gave a specific binding of 121% (GALR2 (Homo sapiens, UniProt O43603); radioligand binding; 10 µM).
`O=c1oc(-c2ccccc2)ns1` gave a kobs/[I] of 0.95 M⁻¹ s⁻¹ (PSMB6 (Homo sapiens, UniProt P28072); enzyme inactivation, inhibitor; human PA28-activated proteasome).
`CC[C@@H](C)[C@@H](NC(=O)[C@@H](Cc1ccc(O)cc1)NC(=O)[C@H]1CCCN1C(=O)[C@@H](CCCNC(=N)N)NC(=O)[C@H](N)Cc1c[nH]cn1)C(=O)N[C@H](C)C(=O)N[C@H](Cc1c[nH]cn1)C(=O)N[C@H](CCCNC(=N)N)C(=O)N[C@H](CCCCNC(=O)c1cccc(S(=O)(=O)F)c1)C(=O)N[C@H](Cc1ccc(O)cc1)C(=O)N[C@H](CO)C(=O)N[C@H](Cc1ccccc1)C(N)=O` — result for “surface TFRC expression”: 0.896 and 0.914 (Transferrin receptor protein 1 (Tfrc, Mus musculus, UniProt Q62351); flow cytometry; DC2.4; 6 h, pH 6, unit not given; reference: 0 h).
`Nc1ncnc2c1ncn2[C@@H]1O[C@H](COP(=O)(O)OP(=O)(O)OP(=O)(O)O)[C@@H](O)[C@H]1O` gave a Km of 150 µM (axonemal dynein ATPase; substrate; Triton-extracted reactivated sperm; oligomycin-insensitive ATPase).
`CCCCCCCCCCCC(=O)N[C@H]1CCOC1=O` gave a Hill slope of 1.5 (qscR, DNA-bound (Pseudomonas aeruginosa, UniProt G3XD77); DNA binding, ligand, EMSA; saturating ligand).
`COc1ccc(N2C(=O)N(c3c(C)cccc3Cl)Cc3cnc(Nc4ccc(C5CCN(C)CC5)cc4OC)nc32)nc1` has an inhibition of 11% (GSK3B (Homo sapiens, UniProt P49841); kinase activity, inhibitor; 0.5 µM, kinase GSK-3-BETA).
Under “binding rate constant”, `C=CC(=O)N[C@H]1C=C(C)c2c(-c3cnc4ccccc4c3)c3c(N)ncnc3n2C1` is recorded as 2.85 h⁻¹ (EGFR (Homo sapiens, UniProt P00533); irreversible inhibitor, PD turnover model, item: EGFR phosphorylation; mouse, NCI-H2073 xenograft).
For `CN(CC(=O)O)C(=N)NP(=O)(O)O`, the kcat was 39 ± 13 s⁻¹ (CKMT1A (Homo sapiens, UniProt P12532); substrate, Kinase-Glo luminescence; pH 7.0, reverse reaction, WT mutant, together with: second substrate in excess).
`CC(C)[C@@H](O)CC[C@@H](C)[C@H]1CC[C@H]2[C@@H]3CC=C4C[C@@H](O)CC[C@]4(C)[C@H]3CC[C@]12C` gave a current response of 145 ± 8% (Glutamate NMDA receptor; GRIN1/GRIN2B (GRIN1/GRIN2B, Homo sapiens, UniProt Q05586+Q13224, L650A); positive allosteric modulator, two-electrode voltage clamp; Xenopus oocytes expressing GluN2B-L650A; 10 µM, 0.02% cremophor, together with: 100 µM glutamate and glycine; reference: without compound).
`COc1cc2nccc(Oc3ccc(NC(=O)c4cc5c(n(-c6ccccc6)c4=O)CCCC5=O)nc3)c2cc1OC` has a selectivity ratio of 51 (NTRK1 (Homo sapiens, UniProt P04629); cell viability, CellTiter-Glo; Ba/F3 expressing recombinant kinase; reference: NTRK1 IC50 over AXL IC50).
`Nc1ncnc2c1ncn2[C@@H]1O[C@H](COP(=O)(O)OP(=O)(O)O)[C@@H](O)[C@H]1O` gave a ΔH of -0.49 ± 0.0738 kcal/mol (Cell cycle histidine kinase CckA, G318A; cytoplasmic region (Caulobacter vibrioides, UniProt Q9X688, G318A); binding, ITC; together with: without c-di-GMP).
The remaining binding of `[2H]c1c([2H])c([C@]2([2H])CCCN2C(=O)C(C)(C)Oc2ccc3cn[nH]c3c2)c([2H])c([2H])c1C([2H])([2H])[2H]` is reported as 77% (ITK (Homo sapiens, UniProt Q08881); KINOMEscan; 1 µM; reference: DMSO control).
With `CC[C@H](C)[C@@H]1NC(=O)[C@H](Cc2c[nH]c3ccccc23)NC(=O)[C@H](Cc2ccc(O)cc2)NC(=O)CSC[C@@H](C(N)=O)NC(=O)[C@H]([C@@H](C)O)NC(=O)[C@H](CO)NC(=O)[C@H](C(C)C)NC(=O)[C@H](Cc2ccc(O)cc2)NC(=O)[C@H](CCCNC(=N)N)NC(=O)[C@H](Cc2ccc(O)cc2)NC(=O)[C@H]([C@@H](C)O)NC(=O)[C@H]([C@@H](C)O)NC(=O)[C@H](Cc2c[nH]c3ccccc23)NC(=O)[C@H](CO)NC(=O)[C@H](CC(N)=O)NC(=O)[C@H](CO)NC1=O` the -TΔS was -2.5 ± 1.2 kcal/mol (Vacuolar protein sorting-associated protein 26A/Vacuolar protein sorting-associated protein 35, Vps35 residues 1–390 (Homo sapiens, UniProt O75436+Q96QK1); ITC; 25 °C).
The inhibition of `CN1CCN(c2cc(-c3ccncc3)c(-c3ccc4ccccc4c3)nn2)CC1` is reported as -28.7% (HTR1A (Homo sapiens, UniProt P08908); antagonist, FLIPR; 10 µM).
For `O=C[C@H](O)COP(=O)(O)O`, the Km was roughly 29000 µM (TPI1 (Saccharomyces cerevisiae, UniProt P00942, Y208S); substrate, GPDH/NADH-coupled; pH 5.7, 25 °C).
`CCCCC/C=C\C/C=C\C/C=C\C/C=C\CCCC(=O)NCCO` gave a Hill coefficient of 3.37 ± 0.34 (Trpv1 (Mus musculus, UniProt Q704Y3, E571S); ion current, agonist, whole-cell patch clamp; E571S).
For `CN(C(=O)n1cnc(-c2ccc[n+]([O-])c2)c1)C1CCCCC1`, the fold change was -11.7 (Abhd6; enzyme activity, ABPP; rat, brain; oral, 30 mg/kg/day, 28 days; reference: vehicle).
`CCOC(=O)COc1ccc2c(=O)c3ccccc3oc2c1` has a Vmax of 0.0048 a.u. (ache (Electrophorus electricus, UniProt O42275); enzyme activity, inhibitor, Lineweaver-Burk plot; 1.68 µM; higher = faster reaction).
For `COc1cc(N)c(Cl)cc1C(=O)NC1CN2CCC1CC2` (centres unmarked), “log2 fold change” read 0.146 (NPBWR2 (Homo sapiens, UniProt P48146); receptor activation, TANGO luminescence; concentration not given, unconfirmed screen; reference: vehicle control).
With `O=C(Nc1cnccc1Cl)N1CCN(Cc2ccc3c(c2)OC(F)(F)O3)CC1` the inhibition was 18.1% (Abhd6; probe labelling, inhibitor, competitive ABPP with azido-FP probe, item: ABHD6; rat brain membrane fraction; 10 µM).
`COc1ccc(Nc2nn3c(-c4ccccc4)ccnc3c2C(=O)Nc2ccccc2)cc1` gave a band quantity of 0.88 a.u. (α-glucosidase; SDS-PAGE densitometry, item: 45 kDa band; 1 mg/mL; reference: untreated enzyme, lower = more denaturation).

Some of these lines once more:
For `CC1(C)S[C@@H]2[C@H](/N=C/N3CCCCCC3)C(=O)N2[C@H]1C(=O)O`, the kinact/KI was 410 ± 58 M⁻¹ s⁻¹ (Penicillin-binding protein 2X (Streptococcus pneumoniae R6, UniProt P59676); inhibitor; Streptococcus pneumoniae).
The IC50 of `C[C@H]1COCCN1c1nc(NCc2cccnc2C(F)(F)F)c2cccnc2n1` is reported as 37.8 µM (CHRM2 (Homo sapiens, UniProt P08172); binding; CEREP panel).
With `Cn1nccc1[C@]1(CNC(=O)c2ccc(F)c(F)c2-c2ccc(C(F)(F)F)cc2)NC(=O)NC1=O` the selectivity ratio was greater than 16700 (MALT1 (Homo sapiens, UniProt Q9UDY8); inhibitor; reference: MALT1 over target).
